# Published values from different studies.
# Compare with care: the assays were run in different laboratories.
# Organism: Trypanosoma cruzi
SMILES,test,test system,setting,how to read,endpoint,result
CCC(=O)C[C@@H](O)C[C@@H](C)C[C@H](NC(=O)[C@@H]1C[C@H](C)CN1C(=O)/C=C/[C@@H](C)CC)C(=O)N[C@H](C(=O)NC(C)(C)C(=O)N[C@@H](CC(C)C)C(=O)N[C@@H](CC(C)C)C(=O)NC(C)(C)C(=O)NC(C)(C)C(=O)NCCC(=O)N[C@@H](C)CNC)[C@H](O)C(C)C,,"C2C12, CA-I/72",,relative to: CC50 C2C12 over EC50 amastigotes,selectivity index,> 120
Cc1nc(C)c(C(=O)Nc2ccc(F)c(-c3nc4ncc(-c5ccccn5)cn4n3)c2)o1,,"PSMB4 F24L overexpression, epimastigotes",,relative to: PSMB4 F24L over wild type,potency shift,> 10 fold
Cc1nc([N+](=O)[O-])cn1CC(O)CF (stereo not shown),parasite growth,,"24 h, trypomastigote",,IC50,1150 µM
CC(C)OC(=O)Nc1cnc2nc(-c3cc(NC(=O)c4ccco4)ccc3F)cn2c1,,epimastigotes,0.2% DMSO,,EC20,0.2 µM
C=C1C(=O)O[C@@H]2C[C@H](C)[C@@H]3C[C@H](OC(C)=O)[C@H](OC(C)=O)[C@@]3(C)C[C@H]12,,epimastigote,,relative to: CC50 splenocytes over IC50 epimastigotes,selectivity index,26
CCCC[C@@H](O)C[C@@H](C)C[C@H](NC(=O)[C@@H]1C[C@H](C)CN1C(=O)/C=C/[C@@H](C)CC)C(=O)N[C@H](C(=O)NC(C)(C)C(=O)N[C@@H](CC(C)C)C(=O)N[C@@H](CC(C)C)C(=O)NC(C)(C)C(=O)NC(C)(C)C(=O)NCCC(=O)N[C@@H](C)CN(C)C)[C@H](O)C(C)C,,"C2C12, CA-I/72",,relative to: CC50 C2C12 over EC50 amastigotes,selectivity index,> 530
C=C1C(=O)O[C@@H]2C[C@H](C)[C@@H]3C[C@H](O[Si](c4ccccc4)(c4ccccc4)C(C)(C)C)[C@H](O)[C@@]3(C)C[C@H]12,,epimastigote,,relative to: CC50 splenocytes over IC50 epimastigotes,selectivity index,3
Cc1ncnc2c1c(C1=CCSCC1)cn2[C@@H]1O[C@H](CO)[C@@H](O)[C@H]1O,CPRG readout,"MRC-5 SV2, Tulahuen CL2 β-galactosidase","7 days, intracellular amastigotes",,EC50,20.8 µM
CCCC[C@@H](O)C[C@@H](C)C[C@H](NC(=O)[C@@H]1C[C@H](C)CN1C(=O)/C=C/[C@@H](C)CC)C(=O)N[C@H](C(=O)NC(C)(C)C(=O)N[C@@H](CC(C)C)C(=O)N[C@@H](CC(C)C)C(=O)NC(C)(C)C(=O)NC(C)(C)C(=O)NCCC(=O)N[C@@H](C)CNC)[C@H](O)C(C)C,,"C2C12, CA-I/72",,relative to: CC50 C2C12 over EC50 amastigotes,selectivity index,> 410
C=C1C(=O)O[C@@H]2[C@H]1CC[C@H](C)[C@@]1(O[Si](C)(C)C)C=CC(=O)[C@@]21C,,epimastigote,,relative to: CC50 splenocytes over IC50 epimastigotes,selectivity index,0.3
N=C(N)NCCC[C@H](NC(=O)[C@H](CCCNC(=N)N)NC(=O)[C@H](CCCNC(=N)N)NC(=O)[C@H](CCC(N)=O)NC(=O)[C@H](CCCNC(=N)N)NC(=O)[C@H](CCCNC(=N)N)NC(=O)[C@H](CCCCN)NC(=O)[C@H](CCCCN)NC(=O)[C@H](CCCNC(=N)N)NC(=O)CNC(=O)[C@H](Cc1ccc(O)cc1)NC(=O)CNC(=O)CNC(=O)[C@@H]1CCCCNC(=O)CCC(=O)N[C@@H](CCCNC(=N)N)C(=O)N[C@@H](CC(N)=O)C(=O)NCC(=O)N[C@@H](CCC(N)=O)C(=O)N[C@@H](CS)C(=O)N[C@@H](CCC(N)=O)C(=O)N[C@@H](CCCNC(=N)N)C(=O)N[C@@H](CCCCN)C(=O)N1)C(N)=O,parasite growth,,"24 h, epimastigote",,IC50,~3 µM
C=C1C(=O)OC2CC(C)C3C=CC(=O)C3(C)C(O[Si](C)(C)C(C)C)C12 (stereo not shown),,epimastigote,,relative to: CC50 splenocytes over IC50 epimastigotes,selectivity index,2.2
O=c1c2ccccc2[se]n1-c1ccccc1,,"U-2 OS host cells, Y","72 h, intracellular amastigotes, added: FBS 10%",,EC50,3 µM

# Repeated from above:
SMILES,test,test system,setting,how to read,endpoint,result
CCC(=O)C[C@@H](O)C[C@@H](C)C[C@H](NC(=O)[C@@H]1C[C@H](C)CN1C(=O)/C=C/[C@@H](C)CC)C(=O)N[C@H](C(=O)NC(C)(C)C(=O)N[C@@H](CC(C)C)C(=O)N[C@@H](CC(C)C)C(=O)NC(C)(C)C(=O)NC(C)(C)C(=O)NCCC(=O)N[C@@H](C)CNC)[C@H](O)C(C)C,,"C2C12, CA-I/72",,relative to: CC50 C2C12 over EC50 amastigotes,selectivity index,> 120
